Measured values pooled from the literature.
A part holds a random share of what one study measured. Positions count from the first letter of the parent shown.

Sample 1
Target: Max dimerization protein 1, bHLH-zipper, MAX partner unstated (MXD1, Homo sapiens, UniProt Q05195, residues 56-136)
Method: protein-binding microarray
Molecule type: double-stranded DNA, one strand shown
Medium: in vitro
Concentration: not given
Setting: k-mer, scored over probes, only values ≥0.25
Direction: higher = stronger binding
Construct (chain): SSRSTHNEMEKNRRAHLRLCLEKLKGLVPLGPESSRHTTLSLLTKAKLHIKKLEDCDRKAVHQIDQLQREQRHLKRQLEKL
The E-score of `CGTGTGAG` is reported as 0.332.
`ACCATGTG` gave an E-score of 0.472.
With `CGTGGGAA` the E-score was 0.352.
`CCACGCTA` has an E-score of 0.334.
`ACACCGTG` has an E-score of 0.264.
For `AAGGGGGC`, the E-score was 0.293.
For `ATAACGTG`, the E-score was 0.383.
`CGTGTCAG` gave an E-score of 0.281.
`ATCGCGTG` has an E-score of 0.393.
The E-score of `CACACACG` is reported as 0.32.
`CATCACGC` has an E-score of 0.254.
`AGCATGGC` has an E-score of 0.404.
The E-score of `AGTCCACG` is reported as 0.318.
With `CCCTCGCA` the E-score was 0.261.
For `GCATGTCC`, the E-score was 0.406.

Sample 2
Target: Interferon regulatory factor 3, full length, phosphomimetic (IRF3, Homo sapiens, UniProt Q14653, residues 1-427, S386D/S396D/S398D/S402D/T404D/S405D)
Sequence of UniProt Q14653 (whole entry, unmodified, looked up): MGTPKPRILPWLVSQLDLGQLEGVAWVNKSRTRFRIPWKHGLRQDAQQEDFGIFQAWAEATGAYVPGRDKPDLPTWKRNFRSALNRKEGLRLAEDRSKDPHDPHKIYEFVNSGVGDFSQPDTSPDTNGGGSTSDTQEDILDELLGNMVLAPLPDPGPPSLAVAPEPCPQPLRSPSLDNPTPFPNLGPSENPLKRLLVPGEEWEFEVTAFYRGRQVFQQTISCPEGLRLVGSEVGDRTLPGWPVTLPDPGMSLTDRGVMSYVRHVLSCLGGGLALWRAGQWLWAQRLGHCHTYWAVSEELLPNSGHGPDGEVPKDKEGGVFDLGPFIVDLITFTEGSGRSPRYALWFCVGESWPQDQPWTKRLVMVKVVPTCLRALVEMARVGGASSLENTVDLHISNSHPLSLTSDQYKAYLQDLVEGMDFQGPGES
Method: protein-binding microarray
Molecule type: double-stranded DNA, one strand shown
Medium: in vitro
Concentration: 2540 nM top
Setting: 60-bp whole probe
Together with: salmon DNA 0.4 mg/ml
Relative to: random background probes
Direction: higher = stronger binding
Shared flanks, not repeated: GCCTAGCAC … GTCTTGATTCGCTTGACGCTGCTG
Under “fitted relative affinity”, `TCATGTTTGTCACTCTCACTGTGCTAG` is recorded as 0.486 z-score.
`GACGATATCAGACTGGCGACGTGCTAG`: “fitted relative affinity” 0.149 z-score.
Under “fitted relative affinity”, `TCCTCTCTGCCACTCAGGTAGTGCTAG` is recorded as 0.713 z-score.
For `TCAAAAATGGAAACTCGTACTGTGCTA`, “fitted relative affinity” read 1.16 z-score.
For `GACGGACCGGACTATCGGGACGTGCTA`, “fitted relative affinity” read 0.246 z-score.
Under “fitted relative affinity”, `GACGCTATCGGGACTGGAGACGTGCTA` is recorded as -0.0505 z-score.
For `TTTGCTTTACTGATGGCCCTGTGCTAG`, “fitted relative affinity” read 0.128 z-score.
Under “fitted relative affinity”, `GACGAACTGAGACTGGAAACGTGCTAG` is recorded as 0.225 z-score.
Under “fitted relative affinity”, `TTAGGTCTCCGTCTCCTTTAGTGCTAG` is recorded as 2.11 z-score.
`GACGATTTCGGGTATTGAGACGTGCTA`: “fitted relative affinity” 1.66 z-score.
`CAGAATTTACTTTCTACGTCGTGCTAG` — result for “fitted relative affinity”: 1.34 z-score.
Under “fitted relative affinity”, `GACGATATCGGGTTTCGAGAGGTGCTA` is recorded as 0.828 z-score.
`TTTTTTTTTTTTTACTTCGGGTGCTAG` — result for “fitted relative affinity”: 1.79 z-score.
`TTAGGACCGGGTTTCGGTTAGTGCTAG` — result for “fitted relative affinity”: 2.92 z-score.
`TTAGATTCCAATTTCGATTAGTGCTAG` — result for “fitted relative affinity”: 4.63 z-score.
`GACGGTATCGGGACTGGGGACGTGCTA` — result for “fitted relative affinity”: 1.8 z-score.
Under “fitted relative affinity”, `AGATATCTGCACTCTCATGTGTGCTAG` is recorded as 0.251 z-score.
Under “fitted relative affinity”, `GACGATATCAGCCTGGAGACGTGCTAG` is recorded as -0.0602 z-score.
`GACCGTTTCGGTCTCGGGACGTGCTAG` — result for “fitted relative affinity”: 7.77 z-score.
Under “fitted relative affinity”, `GACGATATCATTCTCGAGACGTGCTAG` is recorded as 1.76 z-score.
Under “fitted relative affinity”, `TCAAATTTCCATTTTCTACTGTGCTAG` is recorded as 4.83 z-score.
`TCATTTTTATTTATAAAACTGTGCTAG` — result for “fitted relative affinity”: 1.98 z-score.
`TCAGATTTTTAGTTAGAACTGTGCTAG`: “fitted relative affinity” 0.149 z-score.
For `GACGAACTGAGTTTCGAGAGGTGCTAG`, “fitted relative affinity” read 0.818 z-score.
`TCAGGTATTTTTTTGTAACTGTGCTAG` — result for “fitted relative affinity”: 0.185 z-score.

Sample 3
Target: CCNB3, cyclin fold, Cln2 fusion (human)
Method: yeast growth competition, sequencing
Medium: yeast
Setting: weak parent motif
Relative to: not given
Direction: higher = stronger binding
Starting sequence: ASZ1 docking peptide (human); GFGFLLFICKLTF; partner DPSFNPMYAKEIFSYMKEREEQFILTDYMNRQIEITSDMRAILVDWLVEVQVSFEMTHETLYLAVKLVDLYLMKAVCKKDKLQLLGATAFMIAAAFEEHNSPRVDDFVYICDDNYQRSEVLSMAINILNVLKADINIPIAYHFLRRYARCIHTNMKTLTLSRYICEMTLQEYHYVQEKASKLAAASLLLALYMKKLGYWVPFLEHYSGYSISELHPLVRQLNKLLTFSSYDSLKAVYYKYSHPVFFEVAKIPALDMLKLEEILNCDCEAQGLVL
`T12A` — result for “normalised enrichment score”: -0.184.
Under “normalised enrichment score”, `F4A` is recorded as 0.367.
`L11A` — result for “normalised enrichment score”: 0.224.
`F2A`: “normalised enrichment score” 0.0414.
Under “normalised enrichment score”, `C9A` is recorded as 0.248.
For `L6A`, “normalised enrichment score” read 0.342.
`F13A`: “normalised enrichment score” 0.404.

Sample 4
Target: RING finger protein unkempt homolog, zinc fingers 1-6, GST-SBP tag (UNK, Homo sapiens, UniProt Q9C0B0, residues 30-357)
Method: RNA Bind-n-Seq
Molecule type: RNA
Medium: in vitro
Concentration: not given
Setting: RNA with constant flanks, human-mouse chimeric sites, ends assumed
Relative to: input RNA pool
Direction: higher = stronger binding
Target sequence (chain): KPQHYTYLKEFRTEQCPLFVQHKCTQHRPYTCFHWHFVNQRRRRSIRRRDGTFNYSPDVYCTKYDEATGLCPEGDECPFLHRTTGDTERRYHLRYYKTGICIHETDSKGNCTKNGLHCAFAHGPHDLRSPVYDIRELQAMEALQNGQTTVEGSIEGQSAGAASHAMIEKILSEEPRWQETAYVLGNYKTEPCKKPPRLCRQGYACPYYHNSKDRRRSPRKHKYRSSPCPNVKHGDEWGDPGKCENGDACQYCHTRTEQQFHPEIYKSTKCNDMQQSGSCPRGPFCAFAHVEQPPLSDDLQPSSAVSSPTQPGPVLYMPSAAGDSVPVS
`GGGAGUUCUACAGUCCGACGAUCGCCACCAGAUCCCAGAAACAUGACUCUUGCUGCCUACAAGGAGAAGAUGAAGGAGCUCCCGCUGGUGUCCUUGUUCUGCUCCUGCUUCCUGGCCGAUCCCCUGAAUAAGUCGUCCUACAACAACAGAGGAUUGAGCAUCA` gave a bound/input enrichment of 0.14 ratio.
With `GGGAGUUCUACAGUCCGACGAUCAAAGAACUACUGAGGCAAGGCAGCAAAUUUAGGAGAGACAUUUCAACACUAUUAAUAGAGUUAGGAUUCCAAAUUAAAAAGAAAACUAAGACAUUAUACAUCAACAAAGCCAAUGUGUGGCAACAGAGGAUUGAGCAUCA` the bound/input enrichment was 9.22 ratio.
With `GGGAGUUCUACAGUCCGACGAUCCACACACUCUUCUGCGGGACCCUCAUCUUGCAGGCCCGGGCCUAUGUGGGACCGCACGUGCUAGCAGUGGUGACUCGCACAGGGUUCUGCACGGCAAAAGGGGGCCUGGUGAGCUCCAUCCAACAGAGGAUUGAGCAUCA` the bound/input enrichment was 0.0771 ratio.
`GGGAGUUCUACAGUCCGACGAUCGUAGCUGGCCAUUAGGAAAUGCUGGUAAUUUCAGUCACUUGCUGAUGACUUCUGAUGUCCCAGCAAAUGUUGGCAUUCACUGCAAUAGAGAAGAUACUUCUGAGGACCCACGUCUAAGGUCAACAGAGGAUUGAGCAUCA` has a bound/input enrichment of 4.67 ratio.
The bound/input enrichment of `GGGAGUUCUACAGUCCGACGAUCAGUGUGCAGGAAUUCAUGACCUUUACAAGUCAACUGAUUGUGGAACGCUCGGGGAAAGGCACUAGAGCUUCUGUCAAAGAACAAGACUAUCUUUGCCAUGUCUACGUCCGGAGCGACAGUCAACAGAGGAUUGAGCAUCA` is reported as 0.134 ratio.
For `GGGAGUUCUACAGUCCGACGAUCAUUGUUGAAGCGAAUCCACUUUUAGAAGCAUUUGGAAAUGCAAAGACUGUUCGCAACAAUAAUAGCAGUCGAUUUGGGAAAUUUGUAGAAAUUCAUUUCAAUGAAAAGAGCUCAGUUGUUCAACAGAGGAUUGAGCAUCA`, the bound/input enrichment was 0.309 ratio.
The bound/input enrichment of `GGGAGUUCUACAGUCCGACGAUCGCCACCAGAUCCCAGAAACAUGACCCUUGCAGCCUAUAAAGAGAAGAUGAAGGAGCUCCCGCUGGUGUCCUUGUUCUGCUCCUGCUUCCUGGCCGAUCCCCUGAAUAAAUCAUCCUACAACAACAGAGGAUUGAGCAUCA` is reported as 0.347 ratio.
With `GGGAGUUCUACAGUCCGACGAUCCUGAGGAUACCACUGAAGAGACCUUAAAAGAAUCAUUUGAGGGCUCUCGUUCGGGCAGAAUAGUCACUGAUCGGGAAACUGGUUCUUCCAAAGGGUUUGGUUUUGUAAGACUUCAACGUGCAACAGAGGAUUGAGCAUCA` the bound/input enrichment was 0.298 ratio.
With `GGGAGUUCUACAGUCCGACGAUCUUUCUAUUGCAGCAAACCAUGCUACGAAUUAAGGAUCCUAAGAAGUCCCUGGAUUUUUAUACGAGGGUUCUUGGACUGACCCUCCUGCAGAAGCUUGACUUCCCUGCUAUGAAGUUCUCGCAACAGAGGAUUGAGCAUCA` the bound/input enrichment was 0.194 ratio.
`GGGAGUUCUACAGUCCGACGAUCAUGGAACAUUUUGAUGCAUCACUUAGUACCUAUUUCAAGGCCUUCCUGGGCCCCCGAGAUACAAGAGUCAAAGGAUGGUUCCUCCUGGACAAUUACAUCCCUACGUUUGUCUGUUCUGUUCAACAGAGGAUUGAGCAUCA` gave a bound/input enrichment of 0.295 ratio.
For `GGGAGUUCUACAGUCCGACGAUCACAGUUAUAUUGUUGAGUUUCAUUUUCAUAUAUUCUUGUAGUGUCUGCUUGCCUGUGUCUUUUAGUAAAAUAAAAUAUUAAAAUUACAAUAUUUUAGCAUGGUAUUUAACAUUUUCUAAACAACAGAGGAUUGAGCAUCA`, the bound/input enrichment was 3.47 ratio.

Single results of other studies
With `PhoQ, residues 284 288 289 292 302 303 GLASVI` the fold induction was 4.65 (PhoP, residues 12 14 15 18 19 LHTVM (Escherichia coli, UniProt P23836); Sort-seq, refers to: YFP reporter; E. coli; PhoQ-PhoP variant library, together with: 10 µM Mg2+; relative to: high Mg2+ state, higher = stronger signaling).

For quick reference, copied from above (sample 4):
With `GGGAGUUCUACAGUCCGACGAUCAAAGAACUACUGAGGCAAGGCAGCAAAUUUAGGAGAGACAUUUCAACACUAUUAAUAGAGUUAGGAUUCCAAAUUAAAAAGAAAACUAAGACAUUAUACAUCAACAAAGCCAAUGUGUGGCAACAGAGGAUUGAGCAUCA` the bound/input enrichment was 9.22 ratio.
With `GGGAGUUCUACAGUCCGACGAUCCACACACUCUUCUGCGGGACCCUCAUCUUGCAGGCCCGGGCCUAUGUGGGACCGCACGUGCUAGCAGUGGUGACUCGCACAGGGUUCUGCACGGCAAAAGGGGGCCUGGUGAGCUCCAUCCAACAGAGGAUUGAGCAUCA` the bound/input enrichment was 0.0771 ratio.
`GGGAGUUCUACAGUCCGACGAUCGUAGCUGGCCAUUAGGAAAUGCUGGUAAUUUCAGUCACUUGCUGAUGACUUCUGAUGUCCCAGCAAAUGUUGGCAUUCACUGCAAUAGAGAAGAUACUUCUGAGGACCCACGUCUAAGGUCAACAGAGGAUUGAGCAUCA` has a bound/input enrichment of 4.67 ratio.
The bound/input enrichment of `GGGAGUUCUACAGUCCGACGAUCAGUGUGCAGGAAUUCAUGACCUUUACAAGUCAACUGAUUGUGGAACGCUCGGGGAAAGGCACUAGAGCUUCUGUCAAAGAACAAGACUAUCUUUGCCAUGUCUACGUCCGGAGCGACAGUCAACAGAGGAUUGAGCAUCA` is reported as 0.134 ratio.
For `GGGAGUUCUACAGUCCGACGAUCAUUGUUGAAGCGAAUCCACUUUUAGAAGCAUUUGGAAAUGCAAAGACUGUUCGCAACAAUAAUAGCAGUCGAUUUGGGAAAUUUGUAGAAAUUCAUUUCAAUGAAAAGAGCUCAGUUGUUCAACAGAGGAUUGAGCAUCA`, the bound/input enrichment was 0.309 ratio.
